Experimental data of several laboratories.
Numbered parts are unrelated; each lists some results of a single study.

Study 1 — effect on: enzyme activity; concentration: 20 µM; notes: with DTT
Target: Replicase polyprotein 1ab, main protease (rep, Severe acute respiratory syndrome coronavirus 2, UniProt P0DTD1)
| SMILES | inhibition |
| --- | --- |
| O=C(O)c1cc(N2N=C(C(F)(F)F)/C(=C/c3ccc(-c4ccccc4)o3)C2=O)ccc1Cl | 35.4% |
| Cc1ccc(-n2sc3ccccc3c2=O)cc1 | 99.4% |
| S=C=Nc1cccc(NC(=S)NCCCCNC(=S)Nc2cccc(N=C=S)c2)c1 | 92% |
| COc1ccc([N+](=O)[O-])c(S(=O)(=O)c2ccc(Cl)cc2)n1 | -13.1% |

Study 2 — technique: RNAcompete; molecule type: RNA; medium: in vitro; concentration: 20 nM; notes: 7-mer, probes averaged, single round; baseline: mean of 7-mers; direction: higher = stronger binding
Target: PABPC1L2, full length, GST fusion (mouse, UniProt A0ABA7IW68)
Construct (chain): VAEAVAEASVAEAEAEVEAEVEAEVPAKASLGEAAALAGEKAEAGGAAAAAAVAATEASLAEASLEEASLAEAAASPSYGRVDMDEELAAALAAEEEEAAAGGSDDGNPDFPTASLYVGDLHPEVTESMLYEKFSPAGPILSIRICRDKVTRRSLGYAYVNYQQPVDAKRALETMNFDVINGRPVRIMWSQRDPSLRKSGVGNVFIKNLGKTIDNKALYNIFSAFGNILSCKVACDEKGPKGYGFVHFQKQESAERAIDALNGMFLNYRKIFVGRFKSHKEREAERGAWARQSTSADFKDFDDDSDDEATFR
| Strand | 7-mer Z-score |
| --- | --- |
| AUACGGC | 0.169 |
| AGUGCGG | 0.245 |
| AUUCCAC | -0.159 |
| UCAAGUA | -0.0935 |

Study 3 — technique: RNA Bind-n-Seq; molecule type: RNA; medium: in vitro; concentration: 200 nM; notes: whole 134-nt RNA, ends assumed; with: 150 mM KCl; baseline: input library; direction: higher = stronger binding
Target: Fragile X messenger ribonucleoprotein 1, C-terminal low-complexity region (Fmr1, Mus musculus, UniProt P35922)
| Strand | log2 enrichment |
| --- | --- |
| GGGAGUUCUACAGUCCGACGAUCGCAGGAAGUAAAAACAAAUGGAAAUGCUUCGGAUAGUGGCAGGGGUGGGGGUUGCUAAGGAAAGGGUGGGAUGGGAGUGGGAAAAGAGUUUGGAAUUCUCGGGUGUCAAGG | 0.00242 |
| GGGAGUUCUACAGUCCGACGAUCUAACUUUAGAGGAGGAGCUGAUGGAUAUGGCAGUGGACGUGGAUUUGGGGAUGGCUAUAAUGGGUAUGGAGGAGGACCUGGAGGUGGCAAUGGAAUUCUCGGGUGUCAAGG | 0.452 |
| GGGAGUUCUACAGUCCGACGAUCCUGUGCUACACAUCGUAUGUACCGAAUCGGGAAAAAAAGGGGAAAAAAAGGAAAAAAAGGGAAAGUAUUAUGUUACGCCGUUCGGAUCUGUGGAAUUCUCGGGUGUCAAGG | -0.959 |
| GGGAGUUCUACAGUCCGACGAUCAGUCCUGUGCUACACAUCGUAUGUACCGAAUCGGGAGGGAAAAAAAGGGAAAAAGGGAAAGUAUUAUGUUACGCCGUUCGGAUCUGCACUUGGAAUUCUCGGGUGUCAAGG | 0.236 |
| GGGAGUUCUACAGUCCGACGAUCUCAAGUCCUGUGCUACACAUCGUAUGUACCGAAUCGGGCCCGGCCCGGGCCCGGAAAGUAUUAUGUUACGCCGUUCGGAUCUGCACUUCCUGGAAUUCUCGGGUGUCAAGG | -0.659 |
| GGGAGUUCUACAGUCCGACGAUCCCUCAAGUCCUGUGCUACACAUCGUAUGUACCGAAUCGGGGUGGGGUGGUGGAAAGUAUUAUGUUACGCCGUUCGGAUCUGCACUUCCAGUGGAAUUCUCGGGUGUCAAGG | 0.545 |
| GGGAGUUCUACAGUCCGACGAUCAGUCCUGUGCUACACAUCGUAUGUACCGAAUCGGAAAAAGGAAAAAGGAAAAAAAGGAAAGUAUUAUGUUACGCCGUUCGGAUCUGCACUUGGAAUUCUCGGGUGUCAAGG | -0.914 |
| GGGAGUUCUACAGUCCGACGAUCUUAGAAGAAUUUGGAAGGCCUUAAAUAUAGUAGCUUAGUUUGAAAAAUGUGAAGGACUUUCGUAACGGAAGUAAUUCAAGAUCAAGAGUAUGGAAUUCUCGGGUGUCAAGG | -2.31 |

Study 4 — cell line: HEK-293T/ACE2; effect on: pseudovirus infection; organism: VSV pseudotyped with SARS-CoV-2 spike; concentration: concentration not given; baseline: vehicle-treated
| SMILES | GFP-positive cells [%] |
| --- | --- |
| COc1cc2c(cc1Cc1cccc(Cl)c1F)c(=O)c(C(=O)O)cn2[C@H](CO)C(C)C | 120 |
| COc1cc2c(cc1OC)CC(=O)N(CCCN(C)C[C@H]1Cc3cc(OC)c(OC)cc31)CC2.Cl | 81.2 |
| C=CC(=O)N1CCC[C@@H](n2nc(-c3ccc(Oc4ccccc4)cc3)c3c(N)ncnc32)C1 | 145 |

Study 5 — technique: RNA Bind-n-Seq; molecule type: RNA; medium: in vitro; concentration: 365 nM; baseline: no-protein control; direction: higher = stronger binding
Target: RNA binding protein fox-1 homolog 2, RRM domain, GST-SBP tag (RBFOX2, Homo sapiens, UniProt O43251-10, residues 100-194)
Notes: natural RNA segment, single round, ends assumed
Residues (chain): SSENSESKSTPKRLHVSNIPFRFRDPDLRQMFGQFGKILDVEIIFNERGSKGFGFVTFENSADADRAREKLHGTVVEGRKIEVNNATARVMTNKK
| Strand | RBNS enrichment (R) |
| --- | --- |
| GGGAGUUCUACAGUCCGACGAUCUUGAUUGAAAAUUUGGCAAAUUACAUUAUUUGUACUAGAAUUUGACCUAAAACACUUUUUAUGUUUGUUAAAAAUAUUUGCUUUUUAAAAUUUAGUUAAAAAUUGAAGUAUGGAAUUCUCGGGUGCCAA | 0.652 |
| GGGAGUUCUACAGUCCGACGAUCAUUUGAAGGAAACAUGCACAAAUCUGUAAAACAUAGACCUUCGCUUUAUUUUUGUAAGUAUCACCUGCCACCAUGUUUUGUAAUUUGAGGUCUUGAUUUCACCAUUGUCGUGGAAUUCUCGGGUGCCAA | 0.551 |
| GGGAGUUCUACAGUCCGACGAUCCCUCGCCCUCCAAACCAAGCAUUGAGGGUAACCCUCAGAACCCAUUCUCCUAUCUCCUAAAGUGUCGGGGAAAGUUACUGGCCUCUCUCAACAGGGCUCACUCUGAGCUCUGGAAUUCUCGGGUGCCAA | 0.305 |
| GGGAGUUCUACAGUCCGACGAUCUAAUUAUGAAAAAUGGUCUGUUCAUAAUUGGUAGGUGCCUUUUGUGAGCAGGGAGCAUAAUUAUUGGUUUAUUAUGGUAAUUAUGGUGAUUUUUUAAAUAUCAUGUAAUGUGGAAUUCUCGGGUGCCAA | 0.324 |
| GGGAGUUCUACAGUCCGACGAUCCAUAGCCUAGAGCUCAGUUUUAGUUUUAACAUUGUGAAAAUAUUAAAAGAAUCUUGUAACUUUAUUCUUUUUUCUCCUGCUGAAAAAAAAAAUUAAACCAAUCGUAUGAAUGGAAUUCUCGGGUGCCAA | 1.24 |
| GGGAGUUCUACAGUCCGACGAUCAAGUAUAAAUGAAGUCAUAAAAUGUUUCAAUGUUUUGCUGAGUACCUGUUUGUAUUUAUAAAAAACAUGAACACAGGUCCUAAUAAAGAGAUGCCUAAGGCGGUAACUCUUGGAAUUCUCGGGUGCCAA | 0.364 |
| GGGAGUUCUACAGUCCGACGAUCUUUACUGGAGUUCAUUGGUCAGUGCACAGUGCAGCCACAGGACUGACCGUCGUAGGCUUCCAUUUUUCCCAUCACCCACUGUAAAGGCUCAGAGUUGAACUACCACUGUGUGGAAUUCUCGGGUGCCAA | 0.373 |
| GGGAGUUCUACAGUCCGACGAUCUUCAUUUCAUUAGUUGGACUUUUAAAGCAUUAUUUAUACACCAUAGAAAUAUUUCUGAACAUAUCAUGUAAUUUUUUUAAGAUAACUGUGAAAACAUUACAUACAUGUAUUGGAAUUCUCGGGUGCCAA | 0.666 |

Study 6 — effect on: enzyme activity; mode: inhibitor; concentration: 20 µM
Target: Replicase polyprotein 1ab, polymerase (rep, Severe acute respiratory syndrome coronavirus 2, UniProt P0DTD1)
| SMILES | inhibition [%] |
| --- | --- |
| CNCCc1ccc(O)c(O)c1 | -4.24 |
| O=C(O)CNC(=O)c1ccccc1 | -6.07 |
| COc1cccc(N2CCN(C3=Nc4c(F)cccc4[C@H](CC(=O)O)N3c3cc(C(F)(F)F)ccc3OC)CC2)c1 | -2.4 |
| COc1cc2c(=O)c(-c3ccc(O)cc3)coc2cc1O | 2.36 |
| O=C1c2cc(Cl)ccc2OC2CCON12 (stereo not shown) | -0.19 |
| C=CCNC(N)=S | 1.34 |
| NC(=O)c1noc([C@H](CCCC2CCCCC2)CC(=O)NO)n1 | -3.11 |
| COc1cccc(NC(=O)/C=C/c2ccc(Cl)cc2)c1 | -1.36 |
| COc1ccc2[nH]c3c(-c4cccc5ccccc45)nccc3c2c1 | -2.81 |
| Cc1cc(NC(=O)Nc2ccc(N(C)C)cc2)c2cc(F)cc(F)c2n1 | -2.81 |
| CN1CCC(Nc2ncc3ncnc(Nc4ccc(F)c(Cl)c4)c3n2)CC1 | 4.93 |
| CC(C[N+](C)(C)C)OC(N)=O (stereo not shown) | -0.75 |
| c1ccc2c(c1)sc1ccccc12 | 9.29 |
| OC[C@H]1O[C@@H](Oc2cc3c(O)cc(O)cc3[o+]c2-c2ccc(O)c(O)c2)[C@H](O)[C@@H](O)[C@@H]1O | 58.6 |
| Brc1c(Br)c(Br)c2n[nH]nc2c1Br | 20.8 |
| CCC(CC)(CC(=O)Nc1cccc(/C=C/c2nc(C3CCC3)cs2)c1)C(=O)O | 6.96 |
| CO/N=C(\C(=O)N[C@@H]1C(=O)N2C(C(=O)O)=C(COC(C)=O)CS[C@H]12)c1csc(N)n1 | -1.29 |
| CNCC[C@H](Oc1cccc2ccccc12)c1cccs1 | 6.45 |
| CCCCCCCCCCCCCCCC(=O)OC[C@H](O)[C@H]1OC(=O)C(O)=C1O | -0.26 |
| O=c1cc[nH]c(=S)[nH]1 | -4.35 |
| COc1ccc(C(=O)N2CCN(c3ccc4c(c3)CCC(=O)N4)CC2)cc1OC | 1.4 |
| C[C@@H]1CC(=O)c2c(ccc3c2C(=O)c2cccc(O)c2C3=O)C1 | 2.39 |
| O=C1c2cccnc2OC[C@@H]2CCCN12 | -4.15 |
| Cc1cc(-c2nncc3c(C(C)(C)C)c(OCc4ncnn4C)nn23)no1 | -2.42 |
| COc1ccc(C2CC(c3c(O)cc(C)oc3=O)=NCCS2)c(OC)c1 (stereo not shown) | 2.08 |
